Measurements pooled from the literature.
Compare with care: the assays were run in different laboratories. Numbers after ± are the reported error.
CXCR4: C-X-C chemokine receptor type 4 (CXCR4, Homo sapiens, UniProt P61073)
UniProt Q93009, sequence (whole entry, unmodified, looked up): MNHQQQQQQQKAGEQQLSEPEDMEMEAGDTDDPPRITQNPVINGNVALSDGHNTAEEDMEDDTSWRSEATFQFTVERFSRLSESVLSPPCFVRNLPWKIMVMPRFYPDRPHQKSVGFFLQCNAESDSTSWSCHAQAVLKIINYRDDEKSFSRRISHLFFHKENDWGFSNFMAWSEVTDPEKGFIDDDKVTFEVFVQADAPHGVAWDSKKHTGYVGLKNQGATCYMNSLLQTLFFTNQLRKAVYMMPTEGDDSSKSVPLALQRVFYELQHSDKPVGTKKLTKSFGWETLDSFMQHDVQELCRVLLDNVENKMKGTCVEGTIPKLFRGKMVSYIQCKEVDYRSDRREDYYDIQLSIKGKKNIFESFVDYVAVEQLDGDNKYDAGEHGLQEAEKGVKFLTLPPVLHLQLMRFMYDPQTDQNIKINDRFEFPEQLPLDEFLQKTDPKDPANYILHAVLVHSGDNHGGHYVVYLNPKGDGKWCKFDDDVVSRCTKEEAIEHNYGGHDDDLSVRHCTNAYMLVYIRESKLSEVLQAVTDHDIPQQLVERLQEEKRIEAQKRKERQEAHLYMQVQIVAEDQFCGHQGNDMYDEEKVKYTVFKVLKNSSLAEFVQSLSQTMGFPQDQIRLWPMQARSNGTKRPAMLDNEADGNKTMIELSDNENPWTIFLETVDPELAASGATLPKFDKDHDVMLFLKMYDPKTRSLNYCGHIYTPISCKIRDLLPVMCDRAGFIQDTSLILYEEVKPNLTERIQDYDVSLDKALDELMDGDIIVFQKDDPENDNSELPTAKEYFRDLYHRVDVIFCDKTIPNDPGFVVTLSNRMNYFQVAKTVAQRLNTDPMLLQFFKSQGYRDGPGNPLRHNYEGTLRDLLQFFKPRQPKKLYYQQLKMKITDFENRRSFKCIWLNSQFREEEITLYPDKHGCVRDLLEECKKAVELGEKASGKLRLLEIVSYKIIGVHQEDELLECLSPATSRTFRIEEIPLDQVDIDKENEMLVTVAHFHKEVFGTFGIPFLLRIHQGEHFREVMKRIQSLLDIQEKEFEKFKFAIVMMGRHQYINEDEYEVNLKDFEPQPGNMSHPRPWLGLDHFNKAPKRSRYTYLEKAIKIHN
UniProt G5EFS4, sequence (whole entry, looked up): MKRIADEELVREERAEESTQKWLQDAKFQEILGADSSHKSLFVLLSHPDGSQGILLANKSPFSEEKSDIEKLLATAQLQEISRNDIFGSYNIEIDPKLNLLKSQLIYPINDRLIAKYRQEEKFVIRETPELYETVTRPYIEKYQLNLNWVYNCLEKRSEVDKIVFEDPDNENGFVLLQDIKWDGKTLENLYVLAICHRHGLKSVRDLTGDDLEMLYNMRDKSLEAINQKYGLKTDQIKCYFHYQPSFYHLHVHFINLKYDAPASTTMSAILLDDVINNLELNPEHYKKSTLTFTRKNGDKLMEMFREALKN
UniProt Q63449, sequence (whole entry, looked up): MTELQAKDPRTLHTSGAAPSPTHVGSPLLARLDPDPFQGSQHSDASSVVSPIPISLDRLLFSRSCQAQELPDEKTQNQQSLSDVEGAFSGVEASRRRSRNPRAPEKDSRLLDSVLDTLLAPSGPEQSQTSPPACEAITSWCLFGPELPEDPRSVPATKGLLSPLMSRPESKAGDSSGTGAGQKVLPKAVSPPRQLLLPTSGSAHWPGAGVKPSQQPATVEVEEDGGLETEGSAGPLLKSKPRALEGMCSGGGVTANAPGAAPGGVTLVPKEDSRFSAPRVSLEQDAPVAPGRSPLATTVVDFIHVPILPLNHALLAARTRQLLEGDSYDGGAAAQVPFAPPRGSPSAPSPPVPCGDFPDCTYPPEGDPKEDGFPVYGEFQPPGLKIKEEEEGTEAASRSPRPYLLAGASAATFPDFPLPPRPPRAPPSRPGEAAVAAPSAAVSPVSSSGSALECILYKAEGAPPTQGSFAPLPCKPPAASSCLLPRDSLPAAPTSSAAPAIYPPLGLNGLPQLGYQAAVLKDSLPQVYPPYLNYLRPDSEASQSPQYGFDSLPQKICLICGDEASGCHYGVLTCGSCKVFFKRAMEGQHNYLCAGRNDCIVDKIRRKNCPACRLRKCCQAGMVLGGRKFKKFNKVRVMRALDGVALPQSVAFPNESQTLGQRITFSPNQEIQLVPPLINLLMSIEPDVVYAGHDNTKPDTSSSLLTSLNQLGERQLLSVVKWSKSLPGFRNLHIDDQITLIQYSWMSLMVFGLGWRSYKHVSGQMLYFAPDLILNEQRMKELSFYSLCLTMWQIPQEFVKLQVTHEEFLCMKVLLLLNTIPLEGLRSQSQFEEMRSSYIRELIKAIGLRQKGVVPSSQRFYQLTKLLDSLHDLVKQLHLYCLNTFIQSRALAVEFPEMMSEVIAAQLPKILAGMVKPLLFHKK
UniProt Q7L0J3, sequence (whole entry, looked up): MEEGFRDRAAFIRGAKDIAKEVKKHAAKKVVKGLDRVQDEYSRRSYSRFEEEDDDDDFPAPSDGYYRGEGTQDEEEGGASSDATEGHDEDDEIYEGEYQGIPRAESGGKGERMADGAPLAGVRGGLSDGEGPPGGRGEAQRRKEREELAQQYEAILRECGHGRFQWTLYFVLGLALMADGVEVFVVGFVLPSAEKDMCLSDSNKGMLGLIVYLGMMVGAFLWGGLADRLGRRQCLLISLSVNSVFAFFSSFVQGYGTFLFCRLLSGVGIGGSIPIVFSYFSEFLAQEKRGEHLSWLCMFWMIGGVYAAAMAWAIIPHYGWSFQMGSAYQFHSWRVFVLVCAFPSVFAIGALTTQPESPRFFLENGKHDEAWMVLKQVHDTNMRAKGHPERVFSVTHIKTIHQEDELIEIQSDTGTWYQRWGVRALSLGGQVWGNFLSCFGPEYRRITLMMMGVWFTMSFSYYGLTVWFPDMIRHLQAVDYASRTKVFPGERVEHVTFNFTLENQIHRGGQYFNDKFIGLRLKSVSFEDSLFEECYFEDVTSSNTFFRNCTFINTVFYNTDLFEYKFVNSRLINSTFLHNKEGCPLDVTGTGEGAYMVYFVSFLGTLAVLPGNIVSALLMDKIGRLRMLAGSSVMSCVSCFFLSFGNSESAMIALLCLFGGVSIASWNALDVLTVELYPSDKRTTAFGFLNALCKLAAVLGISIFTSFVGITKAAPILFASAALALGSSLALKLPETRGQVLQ
UniProt P11309, sequence (whole entry, looked up): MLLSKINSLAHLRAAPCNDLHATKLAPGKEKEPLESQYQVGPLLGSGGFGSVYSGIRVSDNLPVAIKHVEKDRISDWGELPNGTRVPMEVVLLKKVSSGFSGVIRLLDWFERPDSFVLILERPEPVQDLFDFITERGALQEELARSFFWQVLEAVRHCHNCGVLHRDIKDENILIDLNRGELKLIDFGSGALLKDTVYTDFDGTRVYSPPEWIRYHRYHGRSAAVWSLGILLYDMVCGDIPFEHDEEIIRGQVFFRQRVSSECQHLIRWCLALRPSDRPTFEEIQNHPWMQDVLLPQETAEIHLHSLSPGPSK
UniProt P50391, sequence (whole entry, looked up): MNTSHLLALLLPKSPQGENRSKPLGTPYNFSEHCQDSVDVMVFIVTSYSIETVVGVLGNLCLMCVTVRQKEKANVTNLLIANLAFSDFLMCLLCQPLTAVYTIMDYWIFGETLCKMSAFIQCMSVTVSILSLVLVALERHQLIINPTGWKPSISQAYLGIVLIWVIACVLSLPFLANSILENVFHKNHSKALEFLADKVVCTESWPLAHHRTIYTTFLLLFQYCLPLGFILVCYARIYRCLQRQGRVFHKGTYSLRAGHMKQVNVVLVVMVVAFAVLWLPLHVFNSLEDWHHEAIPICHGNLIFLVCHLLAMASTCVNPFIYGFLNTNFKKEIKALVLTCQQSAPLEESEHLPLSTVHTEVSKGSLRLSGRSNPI

SMILES	target or system	test	test system	setting	how to read	quantity	value
CC(C)C[C@H](NC(=O)[C@H](CCCNC(=N)N)NC(=O)[C@H](Cc1ccc(O)cc1)NC(=O)CCCCCCC(=O)N[C@@H](Cc1ccc(O)cc1)C(=O)N[C@@H](CCCNC(=N)N)C(=O)N[C@@H](CC(C)C)C(=O)NN(CCCNC(=N)N)C(=O)N[C@@H](Cc1ccc(O)cc1)C(N)=O)C(=O)NN(CCCNC(=N)N)C(=O)N[C@@H](Cc1ccc(O)cc1)C(N)=O	NPY4R (Homo sapiens, UniProt P50391)	β-arrestin-2 recruitment, agonist	HEK293T	concentration not given, unit not given	baseline: 1 µM human pancreatic polypeptide	intrinsic activity	0.12
CCOc1ccccc1-c1nnc2n1N=C(c1ccc(NC3CCCCC3)cc1)CS2	CXCR4	β-arrestin recruitment, agonist	U2OS			Emax	10%
CC[C@H](C)[C@H](NC(=O)[C@H](CO)NC(=O)[C@H](CCCCN)NC(=O)CNC(=O)[C@H](CCCCN)NC(=O)[C@H](CC(=O)O)NC(=O)[C@H](Cc1c[nH]cn1)NC(=O)[C@H](CC(C)C)NC(=O)[C@H](CC(C)C)NC(=O)[C@H](CCC(N)=O)NC(=O)[C@H](Cc1c[nH]cn1)NC(=O)[C@H](CCC(=O)O)NC(=O)[C@H](CO)NC(=O)[C@@H](NC(=O)[C@H](C)N)C(C)C)C(=O)N[C@@H](CCC(N)=O)C(=O)N[C@@H](CC(=O)O)C(=O)N[C@@H](CC(C)C)C(=O)N[C@@H](CCC(=O)O)C(=O)N[C@@H](CCCNC(=N)N)C(=O)N[C@H](C(=O)N[C@@H](CCC(=O)O)C(=O)N[C@@H](Cc1c[nH]c2ccccc12)C(=O)N[C@@H](CC(C)C)C(=O)N[C@@H](CCCNC(=N)N)C(=O)N[C@@H](CCCCN)C(=O)N[C@@H](CCCCN)C(=O)N[C@@H](CC(C)C)C(=O)N[C@@H](CCC(N)=O)C(=O)N[C@@H](CC(=O)O)C(=O)N[C@H](C(=O)N[C@@H](Cc1c[nH]cn1)C(=O)N[C@@H](CC(N)=O)C(=O)N[C@@H](Cc1ccccc1)C(=O)N[C@@H](CCCCNC(=O)c1ccc2c(c1)C1(OC2=O)c2ccc(N(C)C)cc2Oc2cc(N(C)C)ccc21)C(N)=O)C(C)C)C(C)C	PTH1R (Homo sapiens, UniProt Q03431)	cAMP formation, agonist, GloSensor	HEK293 GP2.3		baseline: (1-34)	Emax	99 ± 5%
[3H]C([3H])([3H])c1cnccc1CN1C[C@@H](c2cc(F)c(F)c(F)c2)CC1=O	SV2A (Homo sapiens, UniProt Q7L0J3)	radioligand binding	human Alzheimer disease, temporal cortex P1 fraction	5 nM	baseline: control brains	specific binding	decreased
C[C@]12C[C@H](c3ccc(-c4ccc(C(=O)O)cc4)cc3)C3=C4CCC(=O)C=C4CC[C@H]3[C@@H]1CC[C@@]2(O)C(F)(F)C(F)(F)F	Progesterone receptor (Rattus norvegicus, UniProt Q63449)	pregnancy termination	pregnant rat	subcutaneous		fully effective dose	~0.5 mg/kg
Nc1ncnc2c1ncn2[C@@H]1O[C@H](CO)[C@@H](O[C@H]2O[C@H](CO)[C@@H](OP(=O)(O)O)[C@H](OP(=O)(O)O)[C@H]2O)[C@H]1O	Itpr1 (Rattus norvegicus, UniProt P29994)		DT40-IP3R1, permeabilized		baseline: ATP-dependent Ca2+ uptake	maximal Ca2+ release	72 ± 3%
Cc1cc(Cl)cc(-c2ccnc3cc(CN4C(=O)C5C(C4=O)C5(C)C)sc23)c1C[C@@H]1CNCCO1 (stereo partly shown)	USP7 (Homo sapiens, UniProt Q93009, V517F)	enzyme activity, inhibitor, Ub-AMC			baseline: V517F over wild type	IC50 fold change	~2250 fold
[64Cu+2].c1ccc(CNCc2ccc(CN3CCCN4CCNCCCN(CC4)CC3)cc2)nc1	CXCR4		NOD/SCID mice, U87 xenografts, U87-stb-CXCR4 tumour	120 min post-injection		tissue uptake	18.2 ± 2.03 %ID/g
BP(=O)(OP(=O)([O-])OC[C@H]1O[C@@H](n2c[n+](C)c3c(O)nc(N)nc32)[C@H](O)[C@@H]1O)OP(=O)(O)OC[C@H]1O[C@@H](n2cnc3c(=O)[nH]c(N)nc32)[C@H](O)[C@@H]1O (stereo partly shown)	m7GpppX diphosphatase (dcs-1, Caenorhabditis elegans, UniProt G5EFS4)	hydrolysis by DcpS, substrate, HPLC		15 µM, 90 min, pH 7.6, 20 °C, enzyme 200 nM		cleavage	100%
[64Cu+2].c1cnc(CNCc2ccc(CN3CCCN4CCNCCCN(CC4)CC3)cc2)nc1	CXCR4		NOD/SCID mice, U87 xenografts, U87-stb-CXCR4 tumour	60 min post-injection		tissue uptake	29.3 ± 3.81 %ID/g
CC(Oc1cc(-c2ccccc2)nc2cnccc12)C(=O)N(C)c1ccccc1 (stereo not shown)	human leukocytes	binding			baseline: LAB over HAB genotype	Ki ratio	33 ± 20
CC(=O)OCOC(=O)CN(CC(=O)OCOC(C)=O)Cc1c(OC(C)=O)ccc2c1Oc1c(ccc(OC(C)=O)c1CN(CC(=O)OCOC(C)=O)CC(=O)OCOC(C)=O)C21OC(=O)c2ccccc21	MDAH 2774			added: rucaparib		combination index	< 1
Cc1cc(-c2ccc(NC(=O)[C@H](CCCCNC(=O)CCOCCOCCC(=O)N[C@H](Cc3ccccc3)C(=O)N[C@H]3CSSC[C@@H](C(=O)N[C@H](C(=O)O)[C@@H](C)O)NC(=O)[C@H]([C@@H](C)O)NC(=O)[C@H](CCCCN)NC(=O)[C@@H](Cc4c[nH]c5ccccc45)NC(=O)[C@H](Cc4ccc(O)cc4)NC3=O)NC(=O)CN3CCN(CC(=O)O)CCN(CC(=O)O)CCN(CC(=O)O)CC3)c(C)c2)ccc1N=Nc1ccc2c(S(=O)(=O)O)cc(S(=O)(=O)O)c(N)c2c1O [lutetium-177 labelled]			human metastatic neuroendocrine tumour	dose not given		grade 1 abdominal pain incidence	17%
CC(=O)NCCN(CC(=O)NCCN(CC(=O)NCCN(CC(=O)NCCC(N)=O)C(=O)[C@@H](N)Cc1ccccc1)C(=O)[C@@H](N)CCCNC(=N)N)C(=O)[C@@H](N)CCCNC(=N)N	HIV-1 TAR RNA			extrapolated to 1 M KCl		non-electrostatic ΔG°	-6.573 ± 0.0478 kcal/mol
CC[C@H](C)[C@H](NC(=O)[C@H](C)NC(=O)CNC(=O)[C@H](CCCCN)NC(=O)[C@H](CC(C)C)NC(=O)[C@H](CCCCN)NC(=O)[C@H](CCCNC(=N)N)NC(=O)[C@H](CCCNC(=N)N)NC(=O)[C@H](C)NC(=O)[C@H](CC(N)=O)NC(=O)[C@H](Cc1ccccc1)NC(=O)[C@H](CCCCN)NC(=O)[C@H](CCCCN)NC(=O)[C@H](CC(C)C)NC(=O)c1ccc2c(c1)C(=O)OC21c2ccc(O)cc2Oc2cc(O)ccc21)C(=O)N[C@@H](CC(C)C)C(=O)N[C@H](C(=O)N[C@H](C(=O)N[C@@H](CCSC)C(=O)N[C@@H](CC(C)C)C(=O)N[C@@H](C)C(=O)O)[C@@H](C)O)[C@@H](C)O	Calmodulin-1, N-lobe (Calm1, Rattus norvegicus, UniProt P0DP29)	binding, fluorescence anisotropy		calmodulin N-domain CaCl2 titration		fractional saturation	76%
NC(=O)C1CCNC(=O)C(CCCNC(=O)c2cnccn2)NC(=O)C(Cc2ccco2)NC(=O)C(CC2CC2)NC(=O)C=CC(=O)N1 (stereo not shown)	PIM1 (Homo sapiens, UniProt P11309)	DNA-templated library selection		one selection round		enrichment factor	2.4

Repeated from above:
SMILES	target or system	test	test system	setting	how to read	quantity	value
CC[C@H](C)[C@H](NC(=O)[C@H](CO)NC(=O)[C@H](CCCCN)NC(=O)CNC(=O)[C@H](CCCCN)NC(=O)[C@H](CC(=O)O)NC(=O)[C@H](Cc1c[nH]cn1)NC(=O)[C@H](CC(C)C)NC(=O)[C@H](CC(C)C)NC(=O)[C@H](CCC(N)=O)NC(=O)[C@H](Cc1c[nH]cn1)NC(=O)[C@H](CCC(=O)O)NC(=O)[C@H](CO)NC(=O)[C@@H](NC(=O)[C@H](C)N)C(C)C)C(=O)N[C@@H](CCC(N)=O)C(=O)N[C@@H](CC(=O)O)C(=O)N[C@@H](CC(C)C)C(=O)N[C@@H](CCC(=O)O)C(=O)N[C@@H](CCCNC(=N)N)C(=O)N[C@H](C(=O)N[C@@H](CCC(=O)O)C(=O)N[C@@H](Cc1c[nH]c2ccccc12)C(=O)N[C@@H](CC(C)C)C(=O)N[C@@H](CCCNC(=N)N)C(=O)N[C@@H](CCCCN)C(=O)N[C@@H](CCCCN)C(=O)N[C@@H](CC(C)C)C(=O)N[C@@H](CCC(N)=O)C(=O)N[C@@H](CC(=O)O)C(=O)N[C@H](C(=O)N[C@@H](Cc1c[nH]cn1)C(=O)N[C@@H](CC(N)=O)C(=O)N[C@@H](Cc1ccccc1)C(=O)N[C@@H](CCCCNC(=O)c1ccc2c(c1)C1(OC2=O)c2ccc(N(C)C)cc2Oc2cc(N(C)C)ccc21)C(N)=O)C(C)C)C(C)C	PTH1R (Homo sapiens, UniProt Q03431)	cAMP formation, agonist, GloSensor	HEK293 GP2.3		baseline: (1-34)	Emax	99 ± 5%
[3H]C([3H])([3H])c1cnccc1CN1C[C@@H](c2cc(F)c(F)c(F)c2)CC1=O	SV2A (Homo sapiens, UniProt Q7L0J3)	radioligand binding	human Alzheimer disease, temporal cortex P1 fraction	5 nM	baseline: control brains	specific binding	decreased
